Experimental data collected from several papers.
Each line is one published result; not all experiments were run side by side. Several values in a cell are separate wells, animals, samples, runs or records. ± marks the error that the study gave.
USP14: Ubiquitin carboxyl-terminal hydrolase 14 (USP14, Homo sapiens, UniProt P54578)
PRKAA1 with beta1, gamma2: 5'-AMP-activated protein kinase catalytic subunit alpha-1, with beta1, gamma2 (PRKAA1, Homo sapiens, UniProt Q13131)
Rac GTPase-activating protein 1: Rac GTPase-activating protein 1 (Homo sapiens, UniProt Q9H0H5)
GABBR1: Gamma-aminobutyric acid type B receptor subunit 1 (GABBR1, Homo sapiens, UniProt Q9UBS5)

Compound	target or system	assay	test system	setting	scale	endpoint	result
Nc1ccc(N2CCOCC2)c(N)c1	USP14	enzyme activity, inhibitor		17 µM		inhibition	92%
CCn1cc(C(=O)O)c(=O)c2c(N)c(F)c(NC3CCCCC3)cc21	PRKAA1 with beta1, gamma2	kinase activity		0.1 µM, with: ATP at Km		inhibition	-6.5%
CCOC(=O)C1(C)C(Br)=C(Cl)C(=O)N1c1ccc(Cl)cc1 (centres unmarked)	Rac GTPase-activating protein 1	enzyme activity, inhibitor, ADP detection		10 µM		inhibition	81%
COC1CN([C@H]2CC[C@H]([C@@]3(C)Oc4c(Cl)cc(C(=O)NCc5c(SC)cc(C)[nH]c5=O)c(C)c4O3)CC2)C1		RNA-seq, refers to: GIPC2	human, whole blood	dose not given, 24 h	baseline: pretreatment baseline	log2 fold change	4.11
C[Si](C)(C)C[C@H](CN)CC(=O)O	GABBR1	ligand displacement, radioligand		250 µM		inhibition	-9%
NC(=S)N/N=C1\C(=O)Nc2ccccc21	USP14	enzyme activity, inhibitor		17 µM		inhibition	8%
C=CC(=O)N1Cc2nc(-c3cc(-c4cc(Cl)cnc4Cl)c(F)cc3F)n(-c3ccncn3)c2C1	PRKAA1 with beta1, gamma2	kinome panel		1 µM		inhibition	-4.8%
CC(=O)C12NC(C)(C)CC1(C)C(=O)C1=C2c2c(c3c4n2C(C)(C)CC2=C4C4(CC(C)(C)NC(C)(C4)C2=O)CC3(C)C)C(=O)C(C)(C)N1 (single isomer, unassigned; (+))	Neuronal acetylcholine receptor; alpha3/beta4 (Homo sapiens, UniProt P30926+P32297)	ion current, patch clamp	HEK-293T	10 µM		inhibition	31.4%
COC1=C(N2CCOCC2)C(=O)c2ccccc2C1=O	USP14	enzyme activity, inhibitor		17 µM		inhibition	22%
CC(C)C[C@H](NC(=O)[C@H](Cc1ccc(O)cc1)NC(=O)[C@@H](CCCNC(=N)N)NC(=O)[C@@H](CO)NC(=O)[C@H](Cc1ccccc1)NC(=O)[C@H](CC1CCCCC1)NC(=O)[C@H](CC(=O)O)NC(=O)CN1CCN(CC(=O)O)CCN(CC(=O)O)CCN(CC(=O)O)CC1)C(=O)N[C@@H](Cc1c[nH]c2ccccc12)C(=O)N[C@@H](CO)C(=O)O [copper-64 labelled]			human, lower large intestine	concentration not given, 1 h		activity concentration	888 Bq/mL and 1850 Bq/mL and 1660 Bq/mL and 2160 Bq/mL and 1830 Bq/mL and 2000 Bq/mL
CCOC(=O)c1cnc2c(C)cc(C)cc2c1NCCCN(C)C	Rac GTPase-activating protein 1	enzyme activity, inhibitor, ADP detection		10 µM		inhibition	53.4%
CN(C)C/C=C/C(=O)Nc1ccc2nc(NCCCCCN(C)C)nc(NCCCCCCN(C)C)c2c1	SETD7 (Homo sapiens, UniProt Q8WTS6)	enzyme activity, inhibitor, radiometric		10 µM		inhibition	24%
C[Si]1(C[C@H](CN)CC(=O)O)CCCC1	GABBR1	binding, radioligand binding		70 µM, with: [3H]CGP-54626		inhibition	8%
C[n+]1cc(/C=N/NC(=O)N/N=C/c2cc3ccccc3[n+](C)c2)cc2ccccc21	MYC parallel G4 DNA	FRET melting		1 µM, DNA 0.2 µM		ΔTm	3.6 ± 1 °C
CCOC(=O)C1(C)C(Br)=C(Cl)C(=O)N1c1ccc(F)cc1 (centres unmarked)	Rac GTPase-activating protein 1	enzyme activity, inhibitor, ADP detection		10 µM		inhibition	76.3%
CC1=NN(c2ccccc2)C(=O)C1=NOCC(=O)N1CCCc2ccccc21	USP14	enzyme activity, inhibitor		17 µM		inhibition	57%
Cc1cc(N2CCOCC2)nc2cc(Cl)ccc12	Rac GTPase-activating protein 1	GAP activity, malachite green phosphate		concentration not given, orthogonal retest		inhibition	35%
Cc1ccc(CNC(=O)[C@H](CCc2ccccc2)NC(=O)[C@H](CCc2ccccc2)NC(=O)Cc2cccc(Oc3ccccc3)c2)cc1	Neutrophil elastase (ELANE, Homo sapiens, UniProt P08246)	enzyme activity, inhibitor		100 µM		inhibition	-6%
Nc1n[nH]c2cc(O)nc(O)c12	USP14	enzyme activity, inhibitor		17 µM		inhibition	96%
c1ccc(CSc2nnc(-c3ccco3)c(-c3ccco3)n2)cc1	Rac GTPase-activating protein 1	GAP activity, malachite green phosphate		concentration not given, orthogonal retest		inhibition	54.4%
Cc1oc2c(c1C(=O)NCN1CCOCC1)C(=O)c1ccccc1C2=O	USP14	enzyme activity, inhibitor		17 µM		inhibition	20%
COc1ccc2c(c1)-c1nc(N)sc1CC2	Rac GTPase-activating protein 1	enzyme activity, inhibitor, ADP detection		20 µM		inhibition	97.5%
O=C(N/N=C/c1cc[n+](CC2CC2)c2ccccc12)c1ccc2ccc(C(=O)N/N=C/c3cc[n+](CC4CC4)c4ccccc34)nc2n1	hp2 hairpin duplex DNA	FRET melting		1 µM		ΔTm	1.3 ± 0.5 °C

A few entries again:
Compound	target or system	assay	test system	setting	scale	endpoint	result
c1ccc(CSc2nnc(-c3ccco3)c(-c3ccco3)n2)cc1	Rac GTPase-activating protein 1	GAP activity, malachite green phosphate		concentration not given, orthogonal retest		inhibition	54.4%
